Assay results collected from several papers.
Compare with care: the assays were run in different laboratories. Several values in a cell are separate wells, animals, samples, runs or records. ± gives the spread as reported.

| Compound | assay | test system | setting | scale | measurement | result |
| --- | --- | --- | --- | --- | --- | --- |
| CC(C(=O)O)n1nc(Cn2cc3cc(OCC[18F])c(Cl)cc3n2)c2ccccc2c1=O (racemic) |  | rat, heart | 2 h |  | tracer uptake | 0.1 %ID/g |
| CC(C)(O)c1ncc([S@](N)(=O)=NC(=O)Nc2c3c(cc4c2CCC4)CCC3)s1 | measured: nervous system disorders | healthy human volunteers | oral, 25 mg twice daily, 14 days, enteric-coated tablet |  | subjects with adverse events | 13% |
| COc1ccnc(C(=O)N[C@H]2COC(=O)[C@H](Cc3ccccc3)[C@@H](OC(=O)C(C)C)[C@H](C)OC2=O)c1O |  | whole water/sediment system | geometric mean, top-down approach |  | DT50 | 2.7 days |
| N=C(N)NCCC[C@@H]1NC(=O)[C@H](CCCNC(=N)N)NC(=O)[C@@H](CCCNC(=N)N)NC(=O)[C@@H](CCCNC(=N)N)NC(=O)[C@@H](C(c2ccccc2)c2ccccc2)NC(=O)[C@H](Cc2c[nH]c3ccccc23)NC(=O)[C@@H](C(c2ccccc2)c2ccccc2)NC1=O | LC-MS | human plasma | 6 h |  | remaining peptide | 59.1% |
| CC(C)C[C@H](NC(=O)[C@@H](CCCCNC(=O)[C@@H](Cc1ccccc1)NC(=O)CCCCCCCNC(=O)CN1CCN(CC(=O)O)CCN(CC(=O)O)CCN(CC(=O)O)CC1)NC(=O)[C@H](Cc1ccc(O)cc1)NC(=O)[C@H](CO)NC(=O)[C@H](Cc1c[nH]c2ccccc12)NC(=O)[C@H](Cc1c[nH]cn1)NC(=O)[C@@H]1CCC(=O)N1)C(=O)N[C@@H](CCCNC(=N)N)C(=O)N1CCC[C@H]1C(=O)NCC(N)=O [indium-111 labelled] |  | male athymic nude mice, DU-145 prostate cancer xenograft, tumour | intravenous, 0.037 MBq, 4 h | relative to: tumour over muscle | tumour-to-tissue ratio | 2.13 |
| CCCCCCCOc1ccc(CC[C@](N)(CO)COP(=O)(O)O)cc1C(F)(F)F |  | healthy human males, plasma | oral, 0.5 mg, day 1, median |  | Tmax | 12 h |
| CNc1nc(N)nc2c1ncn2C1OC(COP(=O)(O)NC(C)C(=O)O)C(O)C1(C)F (centres unmarked) |  | healthy adult humans, plasma | oral, 550 mg once daily, day 6, fasted, given alone |  | Cmax, arithmetic mean | 626 ng/mL |
| CNCc1ccc(-c2cc(=O)c3ccc4[nH]c(C(F)(F)F)nc4c3o2)cc1 |  | ICR mice, brain | oral, 5 mg/kg |  | t1/2 | 3.49 h |
| O=C(CN1CCN(CC(=O)NCc2ncccc2O)CCN(CC(=O)NCc2ncccc2O)CCN(CC(=O)NCc2ncccc2O)CC1)NCc1ncccc1O.[177Lu+3] |  | Sprague-Dawley rat, lung | intravenous (tail vein), dose not given, 2 h |  | tissue uptake | 0.135 ± 0.028 % injected dose/g |
| C=C(NC(=O)c1csc(-c2nc3c(cc2O)-c2nc(cs2)C(=O)NC(C(C)O)C(=O)NC(=C(C)OC)c2nc(cs2)C(=O)NC2c4nc(cs4)C(=O)NC(COC(=O)c4c5c6c(cccc6n4O)COC(=O)C(OC4CC(C)(O)C(N(C)C)C(C)O4)C2OC5)c2nc-3cs2)n1)C(N)=O (centres unmarked) |  | Sprague-Dawley rat, both sexes, plasma | intravenous infusion, 6 mg/kg, multiple doses, day 1 |  | MRT(0-last) | 1.46 h |
| Cc1cc(C)n(CCN(CCN)CCCCCCNC(=O)[C@@H](N)Cc2c[nH]cn2)n1.[99Tc+].[C-]#[O+].[C-]#[O+].[C-]#[O+] |  | BALB/c nude mice A549 xenograft | intravenous, 15 min | relative to: tumour over lung | tumour-to-tissue ratio | 1.5 |
| CC[C@H](C)[C@@H]1NC(=O)[C@H](Cc2ccc(O)cc2)NC(=O)CCCSC[C@@H](C(=O)N(CC(=O)N[C@@H](CC(C)C)C(=O)NCC(N)=O)Cc2ccc(F)cc2)NC(=O)[C@H](CC(N)=O)NC(=O)[C@H](CCC(N)=O)NC1=O |  | human | intranasal, 15 µg single dose |  | serious adverse events | 0% |
| C[N+](C)(CCOCCOCCOCCNC(=S)Nc1ccc(C[C@H]2CN(CC(=O)[O-])CCN(CC(=O)[O-])CCN2CC(=O)[O-])cc1)C[c-]1cccc1.[64Cu+2].[Fe+2].c1cc[cH-]c1 | pretargeted biodistribution | nude mouse, BxPC-3 xenograft tumour | 8 h post injection, 144 h lag time |  | tumour uptake | 2.2 ± 1.1 %ID/g |
| CCCCN1C(=O)c2cccc3c(NCCCN4CCOCC4)ccc(c23)C1=O |  | toluene |  |  | fluorescence quantum yield | 0.52 |
| Cc1nc(N)nc2c1C(=O)N[C@@H](c1ccc(F)cc1-c1cccc(O[11CH3])n1)C2 | ex vivo biodistribution | healthy mice, urine | 60 min post-injection, baseline, vehicle pre-treatment |  | tracer uptake | 0.4 ± 0.2 %ID |
| O=C(Nc1cnccc1-c1ccc([18F])nc1)c1ccnc(NC(=O)C2CC2)c1 | ex vivo gamma counting | FVB/NJ mice, both sexes, right kidney | intravenous, 120 min, added: tariquidar 15 mg/kg iv |  | mean SUV | 1.62 |
| COc1ccc2c(c1)CCn1c[n+]3c(c1-2)-c1ccc(OC)cc1CC3 |  | female NSG mice, blood | 6 mg/kg, day 7, 5 days per week |  | Neutrophils | 62.2 ± 18.4% |
| Cc1nn(-c2nc3c(F)cc(F)cc3s2)c(O)c1C(c1ccc(C(F)(F)F)cc1)c1c(C)nn(-c2nc3c(F)cc(F)cc3s2)c1O |  | male ICR mouse, plasma | intraperitoneal, 10 mg/kg |  | dose-normalised AUC(0-t) | 2870 kg·ng·h/mL/mg and 2600 kg·ng·h/mL/mg and 2640 kg·ng·h/mL/mg |
| COCC1CN(C2CCN(c3cc(OC)c(Nc4ncc(Br)c(Nc5ccc6c(c5P(C)(C)=O)OCCO6)n4)cc3C)CC2)C1 |  | human, plasma | oral, 60 mg, multiple doses, patients |  | AUC | 16000 ng·h/mL |

| Compound | assay | test system | setting | scale | measurement | result |
| --- | --- | --- | --- | --- | --- | --- |
| CN1CCC[C@]1(C)/C=C/S(=O)(=O)NC(=O)Nc1c2c(cc3c1CCC3)CCC2 | measured: blood triglycerides increased, not related | human | oral, 100 mg twice daily, 14 days, multiple ascending dose |  | subjects with adverse event | 16.7% |
| [123I]c1ccc2nc(-c3ccc(-n4ccnn4)nc3)cn2c1 |  | male Wistar rat, muscle | intravenous, 4 MBq, 6 h |  | tracer uptake | 0.024 %ID/g |
| O=C(Nc1ccc(-c2nnc(-c3ccccn3)nn2)nc1)c1ccc(-c2cn(CCOCCOCCOCC[18F])nn2)cc1 |  | BALB/c nude mouse, LS174T xenograft | intravenous, dose not given, 1 h, added: CC49-TCO pretargeting |  | tumour to control tumour ratio | 1.2 |
| Cc1ccc2ccc3ccc(C)nc3c2n1.Cc1ccc2ccc3ccc(C)nc3c2n1.Clc1ccc(-c2cc(-c3ccccn3)nn2-c2ccccc2)cc1.[Cl-].[Cl-].[Ru+2] | C18 HPLC retention time | water | 100 µM | relative to: standards of known log P | relative log P | 1.61 |
| O=C(c1ccccc1)N1C(c2ccc(OCC3CCN(CCCF)C3)cc2)c2ccc(O)cc2CC12CC2 (centres unmarked) |  | C57BL/6J mouse, plasma | intraperitoneal, 25 mg/kg |  | MRT(0-inf) | 2.21 h and 2.28 h |
| O=C(NS(=O)(=O)c1cccs1)c1cc2ccccc2n1Cc1ccc(Br)c2ccccc12 |  | mouse, plasma | oral, 1 mg/kg |  | MRT(0-inf) | 1.09 h |
| C=CC(=O)Nc1cc(Nc2nccc(-c3cn(C)c4ccccc34)n2)c(OC)cc1N(C)CCNC | storage stability | human dried blood spot | 10 d, on ice, MQC level |  | recovery | 75.4% |
| CC(C)(F)CC(NC(c1ccc(-c2ccc(S(C)(=O)=O)cc2)cc1)C(F)(F)F)C(=O)NCC#N (centres unmarked) |  | PBS | 100 µM, 23 h, pH 7.45, 37 °C, added: cysteine 10 mM |  | cysteine adduct formation | 91% |
| C=CC(=O)Nc1cc(Nc2nccc(-c3c[nH]c4ccccc34)n2)c(OC)cc1N(C)CCN(C)C | storage stability | human dried blood spots | 72 h, -80 °C, low QC level |  | recovery | 98.8% |
| NS(=O)(=O)c1c(F)c(F)c(SCCO)c(F)c1F |  |  | sulfonamide group |  | pKa | 8.14 |
| COc1cccc(OC)c1-c1cc(C(=O)NC2(C(=O)O)C3CC4CC(C3)CC2C4)nn1-c1ccc(C(=O)N(C)CCCN(C)C(=O)[C@H](CCCCNC(=O)[C@H](CC(C)C)NC(=O)C2OC2C(=O)O)NC(=O)CN2CCN(CC(=O)[O-])CCN(CC(=O)[O-])CCN(CC(=O)[O-])CC2)cc1C(C)C.[177Lu+3] (mixture of isomers) |  | mouse, HT-29 xenograft, kidney | 24 h post injection |  | tissue uptake | 5.9 %ID/g |
| O=S(=O)(NCc1ccncc1)c1ccc(C2CCCCC2)cc1 |  | CK mouse (male) | intraperitoneal, 1.0 mg/kg daily, 2 weeks |  | PU.1-positive cell count | decreased |
| C=Cc1c(C)c2cc3nc(c(CC(=O)OCCOCCOCCOC)c4[nH]c(cc5nc(cc1[nH]2)C(C)=C5CC)c(C)c4C(=O)O)[C@@H](CCC(=O)OCCOCCOCCOC)[C@@H]3C | LC-MS | methanol-water 9:1 | 1 h, pH 2.0 |  | compound loss | 39% |
| OC1(C(F)(F)F)CCN(c2nc(Nc3ccnc(C(F)(F)F)c3)nc(-c3cccc(C(F)(F)F)n3)n2)C1 (centres unmarked) |  | monkey, plasma | oral, 10 mg/kg |  | Tmax | 6.67 ± 2.07 h |
| O=C(Nc1cnccc1-c1ccc([18F])cc1)c1ccnc(NC(=O)C2CC2)c1 |  | mice, transgenic, GSK-3β, early-stage, muscle | intravenous, dose not given, 120 min |  | SUV | 0.09 |
| CC(C)OCCOCc1ccc(OCC(O)CN(N=O)C(C)C)cc1 (centres unmarked) | duplex sequencing, measured: mutation frequency | NMRI mouse, liver | oral, 9.95 mg/kg/day, 4 weeks | relative to: vehicle | fold change | 1.09 |
| CC(=O)N([O-])CCCCCNC(=O)CCC(=O)N([O-])CCCCCNC(=O)CCC(=O)N([O-])CCCCCN.[89Zr+4] | radio-TLC | aqueous buffer | 7 d, pH 7.2, 37 °C, 89Zr-labelled complex, added: MgCl2 10-fold excess |  | intact complex | 98.7 ± 1.1% |
| COC1CN([C@H]2CC[C@H]([C@@]3(C)Oc4c(Cl)cc(C(=O)NCc5c(SC)cc(C)[nH]c5=O)c(C)c4O3)CC2)C1 |  | female CB17 SCID mice, KARPAS-422 xenograft, plasma | 25 mg/kg, day 12 |  | AUC(0-t) | 2010 ng·h/mL |
| CCCC[C@H](NC(=O)CNC(=O)CNC(=O)[C@H](CCCCNC(=O)[C@H](CC(N)=O)NC(=O)C(C)c1ccc(CC(C)C)cc1)NC(=O)CN1CCN(CC(=O)O)CCN(CC(=O)O)CCN(CC(=O)O)CC1)C(=O)N[C@H]1CC(=O)NCCCC[C@@H](C(N)=O)NC(=O)[C@H](Cc2c[nH]c3ccccc23)NC(=O)[C@H](CCCNC(=N)N)NC(=O)[C@@H](Cc2ccccc2)NC(=O)[C@H](Cc2c[nH]cn2)NC1=O (some centres unmarked) [lutetium-177 labelled] |  | C57 mice, tumour | 2 h | relative to: lung | tumour-to-tissue ratio | 17.7 |
